Assay results pooled from the literature.
Each line is one published result; not all experiments were run side by side. Values joined by “and” are separate records of one study, mostly repeats; a detail may differ. ± marks the error that the study gave.

SMILES	target or system	assay	test system	setting	how to read	endpoint	result
CC(=O)N1C[C@H](O)C[C@H]1C(=O)N[C@@H](CC(C)C)C(=O)N[C@@H](C)C(=O)N[C@@H](CC(=O)O)C(=O)COC(=O)c1c(C)cccc1C	THP-1 cells, LPS-primed	pyroptosis, LDH release	–	25 µM, LPS 1 µg/mL, 4 h, with: nigericin 5 µM, 2 h	–	cell lysis	85% and 91.6%
O=C(N/N=C/c1ccc(C[n+]2ccccc2)cc1)c1ccc2ccc(C(=O)N/N=C/c3ccc(C[n+]4ccccc4)cc3)nc2n1	22CTA telomeric G4-DNA antiparallel	FRET melting	–	1 µM, K10 buffer, DNA 0.2 µM, with: ds26 10 µM	–	ΔTm	13.9 ± 0.2 °C
CN1CCCNC(=O)c2cccc(c2)C(=O)NCCCN(C)CCCNc2cccc3c2C(=O)c2cccc(c2C3=O)NCCC1	SAS	RNA-Seq, measured: LMLN mRNA	–	1 µM, 6 h	relative to: untreated cells	log2 fold change	1.42
CCC(=CCc1c(O)cc2c(c1O)C(=O)CC(c1ccc(O)cc1OC)O2)CC (centres unmarked)	HeLa	cell growth or viability, MTT	–	100 µM, 48 h	–	inhibition	100%
CCNc1cc2c(cc1C)C1(c3cc(C)c(NCC)cc3O2)c2ccccc2C(=O)N1N=Cc1c[c-]c(-c2ccccn2)cc1.Cc1c(C)c(-c2ccc(-c3ccccc3)cc2)[c-](C)c1C.[Cl-].[Ir+3]	A549	PI flow cytometry	–	0.5 x IC50, 24 h	–	G0/G1 phase cells	53.69 ± 0.51%
O=S(=O)(Nc1ccc(OC(F)(F)F)cc1)N1CCCC(C2c3ccc(F)cc3CCc3cc(F)ccc32)C1 (centres unmarked)	D341	CellTiter	–	concentration not given, 72 h	–	cell proliferation	decreased
COc1ccc2c(c1)C(n1nnc3ccccc31)C1=C(CCCC1=O)O2 (centres unmarked)	3T3-L1 mature adipocytes	lipolysis, Oil Red O staining	–	IC20	–	mean lipid content	0.675 OD492
CCN(CC)CC(=O)Nc1cccc(-n2cc(-c3ccc4ccc(-c5cn(-c6cccc(NC(=O)CN(CC)CC)c6)nn5)cc4c3)nn2)c1	RCC4	PCR angiogenesis array, measured: CXCL1	–	5 x IC50, 6 h, normoxia	relative to: untreated	fold regulation	-2.18
COCCNc1nc(-c2nccn2C)nc2sc(-c3cccc(OC)c3Cl)c(-c3ccccc3)c12	BxPC-3	cAMP-Glo	–	1.0 µM, 1 h, with: isoprenaline 15 min	–	cAMP level	no effect
C[C@@H]1CC[C@@H]([C@](O)(CNCc2ccc(F)cc2)COCc2ccccc2)[C@H](OCc2ccccc2)C1	A2780	cell growth or viability, MTT	–	10 µM, 72 h	–	inhibition	33.7%
Cn1ncc2cc(-c3cncc(Cl)c3N3CCC4(CCNC4=O)CC3)ccc21	LS174T	gene expression, microarray, measured: POU2AF1 (BOB1) mRNA	–	concentration not given, 4 h	relative to: untreated cells	log2 fold change	1.38
N#C[C@@H]1CCCN1C(=O)CNC(=O)c1ccnc2ccc(OCCCN3CCN(C(=O)CCc4ccc(O)c(CN5CCN6CC(=O)[O][Al-]([18F])([O]C(=O)C5)[O]c5ccc(CCC(=O)N7CCN(CCCOc8ccc9nccc(C(=O)NCC(=O)N%10CCC[C@H]%10C#N)c9c8)CC7)cc5C6)c4)CC3)cc12 (some centres unmarked)	HT1080 cells expressing human FAP	–	–	120 min, 37 °C	–	internalized fraction	72.6 ± 3.3%
Cc1ccncc1.[Cl-].[Cl-].[Ru+2].c1cc(-c2ccc3cccnc3n2)nc(-c2ccc3cccnc3n2)c1.c1ccc2cc3nc4c5cccnc5c5ncccc5c4nc3cc2c1	SK-MEL-28	–	–	visible light, oxygen 18.5%	relative to: dark EC50 over light EC50	phototherapeutic index	117
F[C@@H]1[C@H](c2ccc(-c3cncnc3)cc2)[C@H](F)[C@H](F)C[C@@H]1F	–	hepatocyte stability	cryopreserved rat hepatocytes	1 µM	–	hepatic clearance	24 mL/min/kg
Cc1ncsc1-c1ccc(C(C)NC(=O)C2CC(O)CN2C(=O)C(NC(=O)CCCCCCCCCCN2CCCC(Nc3ncc(Cl)c(Nc4ccccc4S(=O)(=O)C(C)C)n3)C2)C(C)(C)C)cc1 (centres unmarked)	22Rv1	RNA-seq, measured: PPARA mRNA	–	concentration not given	relative to: DMSO	log2 fold change	-1.5
C[n+]1ccc(/C=N/NC(=O)c2cncc(C(=O)N/N=C/c3cc[n+](C)c4ccccc34)n2)c2ccccc21	22CTA telomeric G4-DNA antiparallel	FRET melting	–	1 µM, K10 buffer, DNA 0.2 µM, with: ds26 10 µM	–	ΔTm	14.4 ± 0.1 °C
CNS(=O)(=O)Nc1nccc(Cc2c(C)c3ccc(Oc4ncccc4F)cc3oc2=O)c1F	SJSA-1	cell viability	–	7 days	–	IC50	13.5 nM
CCC(=CCc1c(O)cc2c(c1O)C(=O)CC(c1ccc(O)cc1)O2)CC (centres unmarked)	HeLa	flow cytometry	–	12 µM, 48 h	–	G2 phase cells	11 ± 0.36%
O=C(NCCCSc1ccc2c(/C=C/c3ccccn3)n[nH]c2c1)c1ccc(Cl)c(C(F)(F)F)c1	BaF3	cell growth or viability, CCK-8	–	–	–	GI50	> 10000 nM
O=C(NCCO)c1ccc(C2CCCCC2)cc1	–	liver microsome stability	rat liver microsomes	1 µM	–	hepatic clearance	49 mL/min/kg
CC(=O)N[C@@H](Cc1ccc(O)cc1)C(=O)N1CSC[C@H]1C(=O)N[C@@H](C)C(=O)N[C@@H](CC(=O)O)C(=O)COC(=O)c1c(C)cccc1C	THP-1 cells expressing FKBP-caspase-4	pyroptosis, inhibitor	–	concentration not given, with: B/B dimerizer	–	LDH release	72.3% and 72.2% and 73.3%
CC12CCCC(NS(=O)(=O)c3cccc(N)c3)(C1)C1CC(C)(C)C1CC2 (centres unmarked)	HT-29	cell growth or viability, CCK-8	–	50 µM	–	inhibition	98.3%
O=c1cc(NCCc2ccccc2)c2ccccc2o1	COS-7 (untransfected)	–	–	500 µM, unit not given	relative to: 3 µM ionomycin	calcium mobilisation signal	11.2 ± 2.41

For quick reference, copied from above:
SMILES	target or system	assay	test system	setting	how to read	endpoint	result
F[C@@H]1[C@H](c2ccc(-c3cncnc3)cc2)[C@H](F)[C@H](F)C[C@@H]1F	–	hepatocyte stability	cryopreserved rat hepatocytes	1 µM	–	hepatic clearance	24 mL/min/kg
Cc1ncsc1-c1ccc(C(C)NC(=O)C2CC(O)CN2C(=O)C(NC(=O)CCCCCCCCCCN2CCCC(Nc3ncc(Cl)c(Nc4ccccc4S(=O)(=O)C(C)C)n3)C2)C(C)(C)C)cc1 (centres unmarked)	22Rv1	RNA-seq, measured: PPARA mRNA	–	concentration not given	relative to: DMSO	log2 fold change	-1.5
C[n+]1ccc(/C=N/NC(=O)c2cncc(C(=O)N/N=C/c3cc[n+](C)c4ccccc34)n2)c2ccccc21	22CTA telomeric G4-DNA antiparallel	FRET melting	–	1 µM, K10 buffer, DNA 0.2 µM, with: ds26 10 µM	–	ΔTm	14.4 ± 0.1 °C
